{"data": "Published values gathered from unrelated publications", "organism": "Pseudomonas aeruginosa", "note": "Compare with care: the assays were run in different laboratories. ± marks the error that the study gave."}
{"Compound": "CC[C@H](C)CCCCC(=O)N[C@@H](CCN)C(=O)N[C@H](C(=O)N[C@@H](CCN)C(=O)N[C@H]1CCNC(=O)[C@H]([C@@H](C)O)NC(=O)[C@H](CCN)NC(=O)[C@H](CCN)NC(=O)[C@H](CC(C)C)NC(=O)[C@@H](CC(C)C)NC(=O)[C@H](CCN)NC1=O)[C@@H](C)O", "assay": "broth microdilution", "test system": "ATCC 27853", "MIC": "1 µg/mL"}
{"Compound": "CSCC[C@H](NC(=O)[C@H](CCCNC(=N)N)NC(=O)[C@H](CCC(=O)O)NC(=O)[C@H](CCCNC(=N)N)NC(=O)[C@@H](NC(=O)[C@@H](NC(=O)[C@@H]1CCCN1C(=O)[C@H](Cc1c[nH]c2ccccc12)NC(=O)CNC(=O)[C@@H](NC(=O)[C@@H](NC(=O)[C@H](CO)NC(=O)[C@H](CO)NC(=O)[C@H](CCCCN)NC(=O)[C@H](CO)NC(=O)[C@H](Cc1c[nH]c2ccccc12)NC(=O)[C@H](CCCCN)NC(=O)CNC(=O)CN)C(C)C)C(C)C)[C@@H](C)O)C(C)C)C(=O)N[C@@H](CCCNC(=N)N)C(=O)O", "assay": "broth microdilution", "test system": "PTCC 1074", "conditions": "overnight, 37 °C", "MIC": "20 µM"}
{"Compound": "CC[C@H](C)[C@H](NC(=O)CNC(=O)[C@H](CC(=O)O)NC(=O)[C@H](CCCNC(=N)N)NC(=O)[C@@H](NC(=O)[C@H](CC(N)=O)NC(=O)[C@H](CCCNC(=N)N)NC(=O)CNC(=O)[C@@H](NC(=O)[C@H](CCCCN)NC(=O)[C@H](CCC(=O)O)NC(=O)[C@@H](NC(=O)[C@H](CCCCN)NC(=O)[C@H](CCCCN)NC(=O)[C@H](Cc1ccccc1)NC(=O)[C@@H](NC(=O)[C@H](CCCCN)NC(=O)[C@H](Cc1c[nH]c2ccccc12)NC(=O)[C@@H](N)CCCCN)[C@@H](C)CC)[C@@H](C)CC)C(C)C)C(C)C)C(=O)N[C@H](C(=O)N[C@@H](CCCCN)C(=O)N[C@@H](C)C(=O)NCC(=O)N1CCC[C@H]1C(=O)N[C@@H](C)C(=O)N[C@H](C(=O)N[C@@H](CCC(N)=O)C(=O)N[C@H](C(=O)N[C@H](C(=O)NCC(=O)N[C@@H](CCC(N)=O)C(=O)N[C@@H](C)C(=O)N[C@H](C(=O)N[C@@H](CO)C(=O)N[C@H](C(=O)N[C@@H](C)C(=O)N[C@@H](CCCCN)C(N)=O)[C@@H](C)CC)[C@@H](C)O)C(C)C)C(C)C)C(C)C)[C@@H](C)CC", "assay": "broth microdilution", "test system": "ATCC 27850", "conditions": "20 h, 37 °C", "MIC": "7 ± 0.8 µg/mL"}
{"Compound": "CC1(C)S[C@@H]2[C@H](NC(=O)[C@H](N)c3ccc(O)cc3)C(=O)N2[C@H]1C(=O)O", "test system": "ATCC 29853", "MIC": "> 500 µg/mL"}
{"Compound": "CC(C)C[C@H](NC(=O)[C@H](C)NC(=O)CNC(=O)[C@@H](NC(=O)[C@H](CC(C)C)NC(=O)[C@H](CCCCN)NC(=O)[C@H](CCCCN)NC(=O)[C@H](CC(C)C)NC(=O)[C@H](CC(C)C)NC(=O)[C@H](CCCCN)NC(=O)[C@H](CC(C)C)NC(=O)[C@H](CC(C)C)NC(=O)[C@@H](N)CCCCN)C(C)C)C(=O)NCC(N)=O", "test system": "ATCC 19606, CAMHB", "conditions": "18 h, 37 °C", "MIC": "21 µM"}
{"Compound": "N=C(N)NCCC[C@H](NC(=O)[C@H](Cc1c[nH]cn1)NC(=O)[C@@H]1CCCN1C(=O)[C@H](CS)NC(=O)CN)C(=O)N[C@@H](CS)C(=O)O", "assay": "broth microdilution", "test system": "MTCC 1688", "conditions": "37 °C", "MIC": "90 µg/mL"}
{"Compound": "CC[C@H](C)[C@H](NC(=O)[C@H](CC(=O)O)NC(=O)[C@H](CCC(N)=O)NC(=O)[C@H](CCCNC(=N)N)NC(=O)[C@H](CCCNC(=N)N)NC(=O)[C@H](CCC(N)=O)NC(=O)[C@H](CO)NC(=O)[C@@H](N)Cc1c[nH]cn1)C(=O)N[C@@H](CC(C)C)C(=O)N[C@@H](CC(=O)O)C(=O)N[C@@H](CC(C)C)C(=O)N[C@@H](Cc1c[nH]c2ccccc12)C(=O)N[C@H](C(=O)N[C@@H](Cc1ccc(O)cc1)C(=O)N[C@@H](Cc1c[nH]cn1)C(=O)N[C@H](C(=O)N[C@@H](CCC(N)=O)C(=O)NCC(=O)N[C@@H](Cc1ccc(O)cc1)C(=O)N[C@@H](Cc1ccccc1)C(=O)O)[C@@H](C)O)[C@@H](C)CC", "assay": "broth microdilution", "test system": "PTCC 1074", "conditions": "overnight, 37 °C", "MIC": "20 µM"}
{"Compound": "CC[C@H](C)[C@H](NC(=O)CNC(=O)[C@H](CCCNC(=N)N)NC(=O)[C@H](Cc1ccccc1)NC(=O)[C@@H](NC(=O)[C@H](Cc1c[nH]cn1)NC(=O)[C@H](Cc1c[nH]cn1)NC(=O)[C@H](Cc1ccccc1)NC(=O)[C@@H](N)Cc1ccccc1)[C@@H](C)CC)C(=O)N[C@H](C(=O)N[C@@H](Cc1c[nH]cn1)C(=O)N[C@H](C(=O)NCC(=O)N[C@@H](CCCCN)C(=O)N[C@H](C(=O)N[C@@H](C)C(=O)N[C@@H](Cc1c[nH]cn1)C(=O)N[C@@H](CCCNC(=N)N)C(=O)N[C@@H](CC(C)C)C(=O)N[C@H](C(=O)N[C@H](C(=O)NCC(N)=O)[C@@H](C)O)C(C)C)[C@@H](C)O)C(C)C)C(C)C", "assay": "broth microdilution", "test system": "ATCC 10662", "conditions": "18 h, 37 °C", "MIC": "25 µg/mL"}
{"Compound": "CC[C@H](C)[C@H](NC(=O)[C@H](Cc1ccccc1)NC(=O)[C@H](CC(=O)O)NC(=O)[C@H](CCCCN)NC(=O)[C@H](C)NC(=O)[C@H](CCCCN)NC(=O)[C@H](CC(N)=O)NC(=O)[C@H](CC(C)C)NC(=O)[C@H](Cc1c[nH]c2ccccc12)NC(=O)[C@H](CCC(=O)O)NC(=O)[C@H](CCCCN)NC(=O)[C@@H](NC(=O)CNC(=O)[C@H](C)N)[C@@H](C)O)C(=O)N[C@@H](CCCCN)C(=O)N[C@@H](CCC(=O)O)C(=O)N[C@@H](CCCCN)C(=O)NCC(=O)N[C@@H](CC(C)C)C(=O)NCC(=O)N[C@@H](CCSC)C(=O)N[C@@H](CC(C)C)C(=O)N[C@@H](CO)C(=O)N[C@@H](C)C(=O)N[C@@H](C)C(=O)N[C@@H](C)C(=O)N[C@@H](CC(N)=O)C(=O)N[C@@H](C)C(=O)N[C@@H](C)C(=O)N[C@@H](CC(C)C)C(=O)N[C@@H](CC(N)=O)C(=O)O", "assay": "broth microdilution", "test system": "ATCC 27853", "conditions": "20 h, 37 °C", "MIC": "> 40 µM"}
{"Compound": "O=[N+]([O-])c1ccc(Oc2cccc3cccnc23)c([N+](=O)[O-])c1", "test system": "ATCC 29853", "MIC": "125 µg/mL"}
{"Compound": "CC[C@H](C)[C@H](NC(=O)[C@H](CC(=O)O)NC(=O)[C@H](Cc1ccccc1)NC(=O)[C@H](CC(C)C)NC(=O)CN)C(=O)N[C@H](C(=O)N[C@@H](CCCCN)C(=O)N[C@@H](CCCCN)C(=O)N[C@H](C(=O)N[C@H](C(=O)NCC(=O)N[C@@H](C)C(=O)N[C@@H](CC(C)C)C(=O)NCC(N)=O)C(C)C)C(C)C)C(C)C", "test system": "ATCC 19606, CAMHB", "conditions": "18 h, 37 °C", "MIC": "> 23 µM"}
{"note": "Some of these lines once more:"}
{"Compound": "CC[C@H](C)[C@H](NC(=O)CNC(=O)[C@H](CCCNC(=N)N)NC(=O)[C@H](Cc1ccccc1)NC(=O)[C@@H](NC(=O)[C@H](Cc1c[nH]cn1)NC(=O)[C@H](Cc1c[nH]cn1)NC(=O)[C@H](Cc1ccccc1)NC(=O)[C@@H](N)Cc1ccccc1)[C@@H](C)CC)C(=O)N[C@H](C(=O)N[C@@H](Cc1c[nH]cn1)C(=O)N[C@H](C(=O)NCC(=O)N[C@@H](CCCCN)C(=O)N[C@H](C(=O)N[C@@H](C)C(=O)N[C@@H](Cc1c[nH]cn1)C(=O)N[C@@H](CCCNC(=N)N)C(=O)N[C@@H](CC(C)C)C(=O)N[C@H](C(=O)N[C@H](C(=O)NCC(N)=O)[C@@H](C)O)C(C)C)[C@@H](C)O)C(C)C)C(C)C", "assay": "broth microdilution", "test system": "ATCC 10662", "conditions": "18 h, 37 °C", "MIC": "25 µg/mL"}
